Assay results pooled from the literature.
Numbers after ± are the reported error.
uncharacterized protein: uncharacterized protein (Streptococcus mutans serotype c, UniProt Q8DS94)

| SMILES | tested on | test | system | conditions | how to read | quantity | value |
| --- | --- | --- | --- | --- | --- | --- | --- |
| N=C(N)NCCC[C@@H]1NC(=O)[C@H](CCCCNC(=O)CCOCCOCCOCCOCCNC(=O)CC[C@H](NC(=O)CCOCCOCCOCCOCCNC(=O)CC[C@H](NC(=O)CN2CCN(CC(=O)O)CCN(CC(=O)O)CCN(CC(=O)O)CC2)C(=O)NCCOCCOCCOCCOCCC(=O)N[C@@H](CCC(=O)NCCOCCOCCOCCOCCC(=O)NCCCC[C@@H]2NC(=O)[C@@H](Cc3ccccc3)NC(=O)[C@H](CC(=O)O)NC(=O)CNC(=O)[C@H](CCCNC(=N)N)NC2=O)C(=O)NCCOCCOCCOCCOCCC(=O)NCCCC[C@@H]2NC(=O)[C@@H](Cc3ccccc3)NC(=O)[C@H](CC(=O)O)NC(=O)CNC(=O)[C@H](CCCNC(=N)N)NC2=O)C(=O)NCCOCCOCCOCCOCCC(=O)NCCCC[C@@H]2NC(=O)[C@@H](Cc3ccccc3)NC(=O)[C@H](CC(=O)O)NC(=O)CNC(=O)[C@H](CCCNC(=N)N)NC2=O)NC(=O)[C@@H](Cc2ccccc2)NC(=O)[C@H](CC(=O)O)NC(=O)CNC1=O [indium-111 labelled] |  |  | female athymic nude mouse | intravenous, 3 µCi, 72 h, U-87 MG glioma xenograft | baseline: tumour over muscle | tumour to muscle ratio | 13.5 ± 3.64 |
| C[C@H](NC(=O)[C@H](CCC(N)=O)NC(=O)[C@H](CCCCN)NC(=O)[C@H](C)NC(=O)[C@@H]1CCCN1C(=O)[C@H](C)NC(=O)[C@H](CCCCN)NC(=O)[C@H](CCC(N)=O)NC(=O)[C@H](C)NC(=O)[C@H](CCCCN)NC(=O)[C@H](CCC(N)=O)NC(=O)[C@@H]1CCCN1C(=O)[C@H](CCC(N)=O)NC(=O)[C@H](CCCCN)NC(=O)[C@H](C)NC(=O)[C@H](CCC(N)=O)NC(=O)[C@H](CCCCN)NC(=O)[C@H](C)NC(=O)[C@@H]1CCCN1C(=O)[C@H](C)NC(=O)[C@H](CCCCN)NC(=O)[C@H](CCC(N)=O)NC(=O)[C@H](C)NC(=O)[C@H](CCCCN)NC(=O)[C@H](CO)NC(=O)[C@H](Cc1ccc(O)cc1)NC(=O)CNC(=O)CNC(=O)CN)C(=O)N[C@@H](CCCCN)C(=O)N[C@@H](CCC(N)=O)C(=O)O |  | binding, SPR Langmuir fit | rVλ6Wil fibrils | 300 nM, pH 7.4 |  | dissociation rate constant | 0.0021 s⁻¹ |
| CC[C@H](C)[C@H](NC(=O)[C@H](CC(N)=O)NC(=O)[C@H](Cc1ccccc1)NC(=O)[C@H](Cc1ccccc1)NC(=O)[C@@H](NC(=O)[C@H](CC(N)=O)NC(=O)[C@H](Cc1c[nH]cn1)NC(=O)[C@@H](NC(=O)[C@H](CCC(N)=O)NC(=O)[C@H](CCCNC(=N)N)NC(=O)[C@@H](NC(=O)[C@@H](N)CCC(=O)O)[C@@H](C)CC)[C@@H](C)O)[C@@H](C)CC)C(=O)N[C@@H](Cc1ccccc1)C(=O)N[C@@H](CCCCN)C(=O)N[C@@H](CCCNC(=N)N)C(=O)N[C@@H](CCCNC(=N)N)C(=O)O | histidine kinase ComD (Streptococcus pneumoniae serotype 2, UniProt A0A0H2ZM50) | reporter gene, agonist | Streptococcus pneumoniae, D39 comX::lacZ | 30 min, pH 7.3, 37 °C |  | EC50 | > 10000 nM |
| CC(C)C[C@H](NC(=O)[C@H](C)NC(=O)[C@H](CCC(N)=O)NC(=O)[C@@H](NC(=O)[C@H](Cc1ccccc1)NC(=O)[C@H](CO)NC(=O)[C@H](CCCNC(=N)N)NC(=O)[C@H](CC(N)=O)NC(=O)[C@H](Cc1ccccc1)NC(=O)[C@H](CC(C)C)NC(=O)[C@H](CCCNC(=N)N)NC(=O)[C@H](Cc1ccccc1)NC(=O)[C@H](Cc1ccccc1)NC(=O)[C@@H](NC(=O)[C@H](CO)NC(=O)[C@H](CC(C)C)NC(=O)[C@@H](N)CO)[C@@H](C)O)[C@@H](C)O)C(=O)NCC(=O)N[C@@H](CCCCN)C(=O)O | uncharacterized protein |  | Streptococcus mutans |  |  | EC50 | 120 nM |
| N=C(N)NCCC[C@H](N)C(=O)N1CCC[C@H]1C(=O)N[C@@H](CCCCN)C(=O)N1CCC[C@H]1C(=O)N[C@@H](CCC(N)=O)C(=O)N[C@@H](CCC(N)=O)C(=O)N[C@@H](Cc1ccccc1)C(=O)N[C@@H](Cc1ccccc1)C(=O)NCC(N)=O | Substance-P receptor (TACR1, Homo sapiens, UniProt P25103) | calcium signal, agonist, fluorescence |  |  |  | EC50 | 7300 nM |
| CC(C)C[C@H](NC(=O)[C@H](C)NC(=O)[C@H](CCC(N)=O)NC(=O)[C@@H](NC(=O)[C@H](Cc1ccccc1)NC(=O)[C@H](CO)NC(=O)[C@H](CCCNC(=N)N)NC(=O)[C@H](CC(N)=O)NC(=O)[C@H](Cc1ccccc1)NC(=O)[C@H](CC(C)C)NC(=O)[C@H](CCCNC(=N)N)NC(=O)[C@H](Cc1ccccc1)NC(=O)[C@H](Cc1ccccc1)NC(=O)[C@@H](NC(=O)[C@H](CO)NC(=O)[C@H](CC(C)C)NC(=O)[C@H](CO)NC(=O)CNC(=O)[C@@H](N)CO)[C@@H](C)O)[C@@H](C)O)C(=O)O | uncharacterized protein |  | Streptococcus mutans |  |  | EC50 | 3600 nM |
| CSCC[C@H](NC=O)C(=O)N[C@@H](CCC(=O)O)C(=O)N[C@@H](Cc1ccccc1)C(=O)N[C@H](C(=O)N[C@@H](C)C(=O)N[C@@H](CCCCN)C(=O)N[C@@H](CC(C)C)C(=O)N[C@@H](Cc1ccccc1)C(=O)N[C@@H](CCCCN)C(=O)N[C@@H](Cc1ccccc1)C(=O)N[C@@H](Cc1ccccc1)C(=O)N[C@@H](CCCCN)C(=O)N[C@@H](CC(=O)O)C(=O)N[C@@H](CC(C)C)C(=O)N[C@@H](CC(C)C)C(=O)NCC(=O)N[C@@H](CCCCN)C(=O)N[C@@H](Cc1ccccc1)C(=O)N[C@@H](CC(C)C)C(=O)NCC(=O)N[C@@H](CC(N)=O)C(=O)N[C@@H](CC(N)=O)C(=O)O)C(C)C | N-formyl peptide receptor 2 (FPR2, Homo sapiens, UniProt P25090) | calcium flux, agonist, flow cytometry, Fluo-3 |  | 37 °C |  | EC50 | 2.14 nM |
| O=C1SCCC1NC(C(=O)NCc1ccccc1)C1CC1 (stereo not drawn) | Thiosulfate sulfurtransferase (TST, Bos taurus, UniProt P00586) | enzyme activity, activator |  |  |  | EC50 | 12900 ± 2700 nM |
| CCN(Cc1ccccc1)C(=O)CCc1nc(CN2CCN(C(=O)Cc3ccc(OC)c(OC)c3)CC2)no1 | Potassium voltage-gated channel subfamily KQT member 2 (KCNQ2, Homo sapiens, UniProt O43526) | ion current, opener, whole-cell patch clamp | CHO stably expressing channel |  |  | EC50 | 500 ± 70 nM |
| C[C@H](NC(=O)[C@H](CCC(N)=O)NC(=O)[C@H](C)NC(=O)[C@H](CCCCN)NC(=O)[C@H](CCC(N)=O)NC(=O)[C@H](C)NC(=O)[C@H](CCCCN)NC(=O)[C@H](CCC(N)=O)NC(=O)[C@H](C)NC(=O)[C@H](CCC(N)=O)NC(=O)[C@H](CCCCN)NC(=O)[C@H](C)NC(=O)[C@H](CCC(N)=O)NC(=O)[C@H](CCCCN)NC(=O)[C@H](C)NC(=O)[C@H](CCC(N)=O)NC(=O)[C@H](C)NC(=O)[C@H](CCCCN)NC(=O)[C@H](CCC(N)=O)NC(=O)[C@H](C)NC(=O)[C@H](CCCCN)NC(=O)[C@H](CO)NC(=O)[C@H](Cc1ccc(O)cc1)NC(=O)CNC(=O)CNC(=O)CN)C(=O)N[C@@H](CCCCN)C(=O)N[C@@H](CCC(N)=O)C(=O)N[C@@H](C)C(=O)N[C@@H](CCCCN)C(=O)N[C@@H](CCC(N)=O)C(=O)O |  | binding, SPR two-state model | rVλ6Wil fibrils |  |  | Kd | 15 nM |
| CC(C)C[C@H](NC(=O)[C@H](C)NC(=O)[C@H](CCC(N)=O)NC(=O)[C@@H](NC(=O)[C@H](Cc1ccccc1)NC(=O)[C@H](CO)NC(=O)[C@H](CCCNC(=N)N)NC(=O)[C@H](CC(N)=O)NC(=O)[C@H](Cc1ccccc1)NC(=O)[C@H](CC(C)C)NC(=O)[C@H](CCCNC(=N)N)NC(=O)[C@H](Cc1ccccc1)NC(=O)[C@H](Cc1ccccc1)NC(=O)[C@@H](NC(=O)[C@@H](CO)NC(=O)[C@H](CC(C)C)NC(=O)[C@H](CO)NC(=O)CNC(=O)[C@@H](N)CO)[C@@H](C)O)[C@@H](C)O)C(=O)NCC(=O)N[C@@H](CCCCN)C(=O)O | uncharacterized protein |  | Streptococcus mutans |  |  | EC50 | 640 nM |
| CN[C@](C)(C[18F])C(=O)O | A549 tumour model |  | host not given, liver | 1 h, tumour-bearing |  | tracer uptake | 2.8 %ID/g |
| CC[C@H](C)[C@H](NC(=O)[C@H](Cc1ccccc1)NC(=O)[C@@H]1CCCN1C(=O)[C@H](CCCCN)NC(=O)[C@H](CCCCN)NC(=O)[C@H](Cc1ccccc1)NC(=O)[C@H](Cc1ccccc1)NC(=O)[C@@H](C)NC(=O)[C@@H](N)Cc1ccc(O)cc1)C(=O)N[C@@H](CC(C)C)C(=O)O | Neurotensin receptor type 1 (Ntsr1, Rattus norvegicus, UniProt P20789) | GTPγS binding, agonist, radiometric |  | cell membranes |  | EC50 | 113 nM |
| NCC1CC1c1cc(O)ccc1OCC1CC1 (single isomer, unassigned; (+)) | 5-hydroxytryptamine receptor 2C (HTR2C, Homo sapiens, UniProt P28335) | calcium signal, agonist |  |  |  | EC50 | 9.3 nM |
| CC(C)C[C@H](NC(=O)[C@H](CO)NC(=O)CNC(=O)[C@@H](N)CO)C(=O)N[C@@H](CO)C(=O)N[C@H](C(=O)N[C@@H](Cc1ccccc1)C(=O)N[C@@H](Cc1ccccc1)C(=O)N[C@@H](CCCNC(=N)N)C(=O)N[C@@H](CC(C)C)C(=O)N[C@@H](Cc1ccccc1)C(=O)N[C@@H](CC(N)=O)C(=O)N[C@@H](CCCNC(=N)N)C(=O)N[C@H](CO)C(=O)N[C@@H](Cc1ccccc1)C(=O)N[C@H](C(=O)N[C@@H](CCC(N)=O)C(=O)N[C@@H](C)C(=O)O)[C@@H](C)O)[C@@H](C)O | uncharacterized protein |  | Streptococcus mutans |  |  | EC50 | > 1000 nM |
| N=C(N)NCCC[C@@H]1NC(=O)[C@H](CCCCNC(=O)CNC(=O)CNC(=O)CNC(=O)CC[C@H](NC(=O)CCOCCOCCOCCOCCNC(=O)CC[C@H](NC(=O)CN2CCN(CC(=O)O)CCN(CC(=O)O)CCN(CC(=O)O)CC2)C(=O)NCCOCCOCCOCCOCCC(=O)N[C@@H](CCC(=O)NCC(=O)NCC(=O)NCC(=O)NCCCC[C@@H]2NC(=O)[C@@H](Cc3ccccc3)NC(=O)[C@H](CC(=O)O)NC(=O)CNC(=O)[C@H](CCCNC(=N)N)NC2=O)C(=O)NCC(=O)NCC(=O)NCC(=O)NCCCC[C@@H]2NC(=O)[C@@H](Cc3ccccc3)NC(=O)[C@H](CC(=O)O)NC(=O)CNC(=O)[C@H](CCCNC(=N)N)NC2=O)C(=O)NCC(=O)NCC(=O)NCC(=O)NCCCC[C@@H]2NC(=O)[C@@H](Cc3ccccc3)NC(=O)[C@H](CC(=O)O)NC(=O)CNC(=O)[C@H](CCCNC(=N)N)NC2=O)NC(=O)[C@@H](Cc2ccccc2)NC(=O)[C@H](CC(=O)O)NC(=O)CNC1=O [indium-111 labelled] |  |  | female athymic nude mice, brain | intravenous, 3 µCi, 24 h, U-87 MG glioma xenograft |  | tissue uptake | 0.04 ± 0.01 %ID/g |
| O=C(NC1CCCC1=O)C1CCC1 (stereo not drawn) | HTH-type quorum-sensing regulator RhlR (rhlR, Pseudomonas aeruginosa, UniProt P54292) | reporter gene, agonist, refers to: rhlI-gfp fluorescence | PAO-JP2 reporter |  |  | EC50 | 7350 nM |
| CC(C)C[C@@H]1NC(=O)[C@H](Cc2ccccc2)NC(=O)[C@H](Cc2ccc(O)cc2)NC(=O)CCSSC[C@@H](C(=O)N2CCC[C@H]2C(=O)N[C@@H](CCCCNC(=O)c2ccccc2N)C(=O)NCC(N)=O)NC(=O)[C@H](CC(N)=O)NC1=O | Vasopressin V1b receptor (AVPR1B, Homo sapiens, UniProt P47901) | inositol phosphate, agonist |  |  |  | EC50 | 2.48 nM |

Repeated from above:
| SMILES | tested on | test | system | conditions | how to read | quantity | value |
| --- | --- | --- | --- | --- | --- | --- | --- |
| NCC1CC1c1cc(O)ccc1OCC1CC1 (single isomer, unassigned; (+)) | 5-hydroxytryptamine receptor 2C (HTR2C, Homo sapiens, UniProt P28335) | calcium signal, agonist |  |  |  | EC50 | 9.3 nM |
| CCN(Cc1ccccc1)C(=O)CCc1nc(CN2CCN(C(=O)Cc3ccc(OC)c(OC)c3)CC2)no1 | Potassium voltage-gated channel subfamily KQT member 2 (KCNQ2, Homo sapiens, UniProt O43526) | ion current, opener, whole-cell patch clamp | CHO stably expressing channel |  |  | EC50 | 500 ± 70 nM |
